{"data": "Measured values of several laboratories", "note": "A part holds a random share of what one study measured. Positions count from the first letter of the parent shown. ± gives the spread as reported.", "chain of UniProt Q96L34 (whole entry, looked up)": "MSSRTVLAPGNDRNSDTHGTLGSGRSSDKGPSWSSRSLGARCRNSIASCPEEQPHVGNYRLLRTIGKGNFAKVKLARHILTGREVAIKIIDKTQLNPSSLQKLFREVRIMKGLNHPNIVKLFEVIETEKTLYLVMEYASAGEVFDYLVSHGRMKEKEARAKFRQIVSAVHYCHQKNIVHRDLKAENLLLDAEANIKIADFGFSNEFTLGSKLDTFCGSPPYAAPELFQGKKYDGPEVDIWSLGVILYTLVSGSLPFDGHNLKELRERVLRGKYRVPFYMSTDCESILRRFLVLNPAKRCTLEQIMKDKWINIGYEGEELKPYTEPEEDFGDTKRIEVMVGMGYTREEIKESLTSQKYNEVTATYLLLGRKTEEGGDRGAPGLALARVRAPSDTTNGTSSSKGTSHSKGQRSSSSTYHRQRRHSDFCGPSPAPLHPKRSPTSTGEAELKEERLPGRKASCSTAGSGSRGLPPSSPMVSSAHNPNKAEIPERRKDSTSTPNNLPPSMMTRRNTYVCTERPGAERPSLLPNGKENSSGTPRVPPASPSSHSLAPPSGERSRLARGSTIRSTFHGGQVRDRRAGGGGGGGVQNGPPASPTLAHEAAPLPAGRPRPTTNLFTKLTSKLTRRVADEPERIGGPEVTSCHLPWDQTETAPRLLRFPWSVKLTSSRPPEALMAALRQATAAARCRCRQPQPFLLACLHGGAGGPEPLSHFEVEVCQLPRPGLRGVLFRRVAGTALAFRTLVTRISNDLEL", "chain of UniProt Q9P2K8 (whole entry, unmodified, looked up)": "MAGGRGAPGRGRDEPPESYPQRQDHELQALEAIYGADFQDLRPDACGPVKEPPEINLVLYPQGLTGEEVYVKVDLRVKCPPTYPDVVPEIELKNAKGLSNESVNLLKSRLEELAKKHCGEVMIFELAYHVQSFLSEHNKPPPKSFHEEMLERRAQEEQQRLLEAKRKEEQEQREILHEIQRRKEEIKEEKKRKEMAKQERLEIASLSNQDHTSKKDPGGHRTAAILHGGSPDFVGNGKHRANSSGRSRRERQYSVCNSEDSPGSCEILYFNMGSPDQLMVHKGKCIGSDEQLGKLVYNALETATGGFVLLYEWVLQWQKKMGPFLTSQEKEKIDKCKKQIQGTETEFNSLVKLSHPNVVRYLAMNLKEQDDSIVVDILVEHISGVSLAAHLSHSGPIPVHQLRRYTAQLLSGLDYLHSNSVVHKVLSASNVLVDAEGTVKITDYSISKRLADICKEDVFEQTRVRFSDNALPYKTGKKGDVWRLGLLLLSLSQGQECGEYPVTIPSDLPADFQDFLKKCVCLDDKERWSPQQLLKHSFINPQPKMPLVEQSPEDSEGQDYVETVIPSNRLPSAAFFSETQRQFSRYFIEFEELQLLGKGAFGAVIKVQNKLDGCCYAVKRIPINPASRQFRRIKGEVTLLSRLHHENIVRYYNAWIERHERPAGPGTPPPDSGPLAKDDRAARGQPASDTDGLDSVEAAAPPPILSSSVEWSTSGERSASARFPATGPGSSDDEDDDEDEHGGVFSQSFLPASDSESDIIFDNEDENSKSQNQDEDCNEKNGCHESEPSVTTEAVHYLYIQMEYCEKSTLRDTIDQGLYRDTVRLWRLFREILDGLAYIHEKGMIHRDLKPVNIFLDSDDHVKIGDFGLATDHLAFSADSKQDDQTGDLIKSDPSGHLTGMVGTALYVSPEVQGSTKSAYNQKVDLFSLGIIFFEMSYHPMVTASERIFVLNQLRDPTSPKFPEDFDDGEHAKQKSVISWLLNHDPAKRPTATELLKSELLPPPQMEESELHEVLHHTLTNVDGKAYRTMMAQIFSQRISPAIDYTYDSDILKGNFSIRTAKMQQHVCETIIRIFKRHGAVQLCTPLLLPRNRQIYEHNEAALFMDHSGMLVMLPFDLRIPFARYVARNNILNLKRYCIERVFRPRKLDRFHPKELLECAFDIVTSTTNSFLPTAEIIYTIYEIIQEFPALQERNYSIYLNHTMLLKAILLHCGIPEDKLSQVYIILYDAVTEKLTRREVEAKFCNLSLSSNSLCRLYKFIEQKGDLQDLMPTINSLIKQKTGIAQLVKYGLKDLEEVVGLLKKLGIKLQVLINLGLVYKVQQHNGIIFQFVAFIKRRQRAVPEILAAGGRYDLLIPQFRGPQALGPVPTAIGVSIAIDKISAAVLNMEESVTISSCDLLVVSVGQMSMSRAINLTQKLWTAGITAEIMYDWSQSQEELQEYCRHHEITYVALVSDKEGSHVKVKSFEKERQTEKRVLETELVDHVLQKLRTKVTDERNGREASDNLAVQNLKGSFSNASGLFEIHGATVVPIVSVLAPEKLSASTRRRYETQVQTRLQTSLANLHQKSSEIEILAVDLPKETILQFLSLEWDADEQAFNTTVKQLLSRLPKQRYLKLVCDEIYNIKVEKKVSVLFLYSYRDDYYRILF", "chain of UniProt O96017 (whole entry, looked up)": "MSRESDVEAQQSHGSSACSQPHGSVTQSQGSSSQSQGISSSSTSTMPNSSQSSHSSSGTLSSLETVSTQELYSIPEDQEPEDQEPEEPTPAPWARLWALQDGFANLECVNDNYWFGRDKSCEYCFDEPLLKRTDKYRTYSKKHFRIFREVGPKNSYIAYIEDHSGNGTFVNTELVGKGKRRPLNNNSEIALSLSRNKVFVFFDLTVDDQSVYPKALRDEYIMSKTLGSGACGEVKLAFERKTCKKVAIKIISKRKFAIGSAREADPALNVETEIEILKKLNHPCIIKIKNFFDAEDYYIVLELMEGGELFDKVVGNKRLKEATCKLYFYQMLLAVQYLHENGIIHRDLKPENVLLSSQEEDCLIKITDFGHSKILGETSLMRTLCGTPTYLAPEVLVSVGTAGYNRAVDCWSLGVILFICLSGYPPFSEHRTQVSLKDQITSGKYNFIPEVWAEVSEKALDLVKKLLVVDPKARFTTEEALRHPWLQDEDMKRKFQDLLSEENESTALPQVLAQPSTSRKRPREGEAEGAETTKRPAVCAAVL", "chain of UniProt Q13464 (whole entry, looked up)": "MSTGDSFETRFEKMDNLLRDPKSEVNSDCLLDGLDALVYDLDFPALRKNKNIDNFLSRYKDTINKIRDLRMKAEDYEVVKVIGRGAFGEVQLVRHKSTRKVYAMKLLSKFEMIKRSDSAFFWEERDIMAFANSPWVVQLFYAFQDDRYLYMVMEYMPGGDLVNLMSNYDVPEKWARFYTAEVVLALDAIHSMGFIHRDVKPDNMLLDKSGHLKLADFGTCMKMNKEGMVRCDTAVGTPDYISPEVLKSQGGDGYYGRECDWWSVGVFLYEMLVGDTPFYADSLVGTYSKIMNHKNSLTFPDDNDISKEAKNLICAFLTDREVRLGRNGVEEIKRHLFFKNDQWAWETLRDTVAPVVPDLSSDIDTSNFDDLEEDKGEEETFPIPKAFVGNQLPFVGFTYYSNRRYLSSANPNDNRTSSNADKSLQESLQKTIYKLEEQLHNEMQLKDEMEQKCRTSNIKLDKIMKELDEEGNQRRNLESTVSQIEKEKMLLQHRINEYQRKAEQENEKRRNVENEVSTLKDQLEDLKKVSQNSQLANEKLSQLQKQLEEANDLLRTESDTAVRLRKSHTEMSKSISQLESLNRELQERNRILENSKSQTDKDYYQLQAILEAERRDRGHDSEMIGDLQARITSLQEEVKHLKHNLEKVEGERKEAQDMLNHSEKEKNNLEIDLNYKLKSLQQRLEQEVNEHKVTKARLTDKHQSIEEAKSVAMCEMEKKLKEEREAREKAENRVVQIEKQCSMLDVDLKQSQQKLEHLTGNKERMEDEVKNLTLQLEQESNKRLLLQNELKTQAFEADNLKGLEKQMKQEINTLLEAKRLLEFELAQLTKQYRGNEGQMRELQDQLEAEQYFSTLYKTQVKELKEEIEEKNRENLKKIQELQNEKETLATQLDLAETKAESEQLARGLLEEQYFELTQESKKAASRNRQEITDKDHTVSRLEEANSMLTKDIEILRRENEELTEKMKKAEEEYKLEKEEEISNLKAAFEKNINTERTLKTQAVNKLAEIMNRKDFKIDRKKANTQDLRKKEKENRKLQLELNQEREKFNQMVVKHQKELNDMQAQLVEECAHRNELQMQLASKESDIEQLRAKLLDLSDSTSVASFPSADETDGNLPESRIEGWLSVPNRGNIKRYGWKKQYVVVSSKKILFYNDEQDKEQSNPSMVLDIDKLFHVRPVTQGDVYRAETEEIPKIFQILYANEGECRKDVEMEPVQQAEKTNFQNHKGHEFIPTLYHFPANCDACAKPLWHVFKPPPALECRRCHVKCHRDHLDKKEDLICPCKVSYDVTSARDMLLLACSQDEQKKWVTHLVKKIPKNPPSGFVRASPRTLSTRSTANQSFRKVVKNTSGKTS", "chain of UniProt Q9HAZ1 (whole entry, looked up)": "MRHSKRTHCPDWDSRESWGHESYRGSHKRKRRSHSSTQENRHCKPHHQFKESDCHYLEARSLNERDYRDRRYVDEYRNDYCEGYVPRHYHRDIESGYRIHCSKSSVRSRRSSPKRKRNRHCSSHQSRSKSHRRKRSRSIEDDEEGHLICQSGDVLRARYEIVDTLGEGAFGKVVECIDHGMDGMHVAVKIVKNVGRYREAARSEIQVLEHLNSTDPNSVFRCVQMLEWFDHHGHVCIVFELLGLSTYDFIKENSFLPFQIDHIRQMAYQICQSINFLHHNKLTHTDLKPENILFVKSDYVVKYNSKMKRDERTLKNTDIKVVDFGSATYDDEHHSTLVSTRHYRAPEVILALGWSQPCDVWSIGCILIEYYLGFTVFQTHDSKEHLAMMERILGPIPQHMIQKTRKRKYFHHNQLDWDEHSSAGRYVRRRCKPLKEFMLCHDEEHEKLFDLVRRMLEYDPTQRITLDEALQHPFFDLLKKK"}
{"data": "Block 1", "Compound": "Cc1cncc2cccc(S(=O)(=O)N3CCCN(C(=O)CN)C[C@@H]3C)c12", "observed": "enzyme activity", "action": "inhibitor", "concentration": "0.5 µM", "baseline": "control"}
{"target": "MET (Homo sapiens, UniProt P08581)", "remaining activity [%]": 104}
{"target": "KDR (Homo sapiens, UniProt P35968)", "remaining activity [%]": 99}
{"target": "MINK1 (Homo sapiens, UniProt Q8N4C8)", "remaining activity [%]": 97.2}
{"target": "ROCK1 (Homo sapiens, UniProt Q13464)", "remaining activity [%]": 3.44}
{"target": "MARK4 (Homo sapiens, UniProt Q96L34)", "remaining activity [%]": 95.7}
{"target": "CAMK4 (Homo sapiens, UniProt Q16566)", "remaining activity [%]": 90.6}
{"target": "PNCK (Homo sapiens, UniProt Q6P2M8)", "remaining activity [%]": 101}
{"target": "RPS6KA4 (Homo sapiens, UniProt O75676)", "remaining activity [%]": 82.3}
{"target": "PRKG2 (Homo sapiens, UniProt Q13237)", "remaining activity [%]": 88.1}
{"target": "PAK3 (Homo sapiens, UniProt O75914)", "remaining activity [%]": 105}
{"target": "MARK2 (Homo sapiens, UniProt Q7KZI7)", "remaining activity [%]": 89.1}
{"target": "Cyclin-dependent kinase 1, with cyclin A (CDK1, Homo sapiens, UniProt P06493)", "remaining activity [%]": 89.2}
{"target": "Cyclin-dependent kinase 9, with cyclin K (CDK9, Homo sapiens, UniProt P50750)", "remaining activity [%]": 103}
{"target": "CLK4 (Homo sapiens, UniProt Q9HAZ1)", "remaining activity [%]": 105}
{"data": "Block 2", "target": "ABI1, truncated, D143A, DHFR fusion (Arabidopsis thaliana)", "method": "DHFR PCA, deep sequencing", "sample": "yeast", "notes": "methotrexate growth selection, single substitutions", "added": "(+)-ABA 2500 µM", "baseline": "wild-type fitted maximum", "reading": "higher = stronger binding", "starting sequence": "PYL1, truncated, DHFR fusion (Arabidopsis thaliana); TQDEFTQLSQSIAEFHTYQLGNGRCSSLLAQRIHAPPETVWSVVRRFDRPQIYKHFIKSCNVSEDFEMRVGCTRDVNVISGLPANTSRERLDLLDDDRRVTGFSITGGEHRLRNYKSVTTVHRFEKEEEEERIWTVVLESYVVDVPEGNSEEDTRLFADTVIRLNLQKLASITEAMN"}
{"Change": "P146Y", "relative binding score [%]": 72.9}
{"Change": "L91Q", "relative binding score [%]": 64.1}
{"Change": "S42P", "relative binding score [%]": 101}
{"Change": "S80D", "relative binding score [%]": 71.2}
{"Change": "G102F", "relative binding score [%]": 12.6}
{"Change": "G108S", "relative binding score [%]": 81.8}
{"Change": "K168E", "relative binding score [%]": 90.6}
{"Change": "T86P", "relative binding score [%]": -0.681}
{"data": "Block 3", "Structure (SMILES)": "NS(=O)(=O)c1cc(NC(=O)Cc2ccccc2)ccc1Oc1cccc(Cl)c1", "observed": "cell-free assay", "method": "competition with immobilised ligand", "concentration": "1 µM"}
{"target": "CHEK2 (Homo sapiens, UniProt O96017)", "remaining binding": "81%"}
{"target": "ULK2 (Homo sapiens, UniProt Q8IYT8)", "remaining binding": "52%"}
{"target": "eIF-2-alpha kinase GCN2, C-terminal kinase domain (EIF2AK4, Homo sapiens, UniProt Q9P2K8, S808G)", "remaining binding": "100%"}
{"target": "STK17A (Homo sapiens, UniProt Q9UEE5)", "remaining binding": "94%"}
{"data": "Mixed results"}
{"Molecule": "COc1cc(C(=O)N2CCC(N3CCN(C)CC3)CC2)ccc1Nc1ncc2c(n1)N(C)c1ccccc1C(=O)N2C", "target": "PKBb", "test": "kinase activity", "setting": "10 µM", "endpoint": "remaining activity", "result": "79 ± 8%"}
{"Molecule": "PhoQ, residues 284 288 289 292 302 303 QWQEDG", "target": "PhoP, residues 12 14 15 18 19 NMSSL (Escherichia coli, UniProt P23836)", "test": "Sort-seq, item: YFP reporter", "system": "E. coli", "setting": "PhoQ-PhoP variant library, added: 10 µM Mg2+", "how to read": "baseline: high Mg2+ state, higher = stronger signaling", "endpoint": "fold induction", "result": 7.58}
{"note": "Repeated from above (block 2):"}
{"Change": "P146Y", "relative binding score [%]": 72.9}
{"Change": "L91Q", "relative binding score [%]": 64.1}
{"Change": "S42P", "relative binding score [%]": 101}
{"Change": "S80D", "relative binding score [%]": 71.2}
{"Change": "G102F", "relative binding score [%]": 12.6}
